Measured values of several laboratories.
Parts stem from different laboratories: compare values within a part only.

Sample 1 — method: RNA Bind-n-Seq; molecule type: RNA; sample: in vitro; tested at: not given; baseline: input RNA pool; reading: higher = stronger binding
Target: RING finger protein unkempt homolog, zinc fingers 1-6, GST-SBP tag (UNK, Homo sapiens, UniProt Q9C0B0, residues 30-357)
UniProt Q9C0B0, sequence (30-357, looked up): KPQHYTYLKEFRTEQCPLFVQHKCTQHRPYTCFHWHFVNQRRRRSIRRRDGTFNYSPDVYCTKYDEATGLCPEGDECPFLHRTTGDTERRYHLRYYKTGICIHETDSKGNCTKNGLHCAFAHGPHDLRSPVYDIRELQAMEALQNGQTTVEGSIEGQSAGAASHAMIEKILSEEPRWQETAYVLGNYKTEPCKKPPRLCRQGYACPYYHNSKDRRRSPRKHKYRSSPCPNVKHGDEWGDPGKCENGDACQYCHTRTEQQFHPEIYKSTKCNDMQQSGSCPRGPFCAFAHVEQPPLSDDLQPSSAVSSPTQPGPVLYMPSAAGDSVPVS
Notes: RNA with constant flanks, human and mouse sites, ends assumed
Shared flanks, not repeated: GGGAGUUCUACAGUCCGACGAUC … CAACAGAGGAUUGAGCAUCA
| Strand | bound/input enrichment |
| --- | --- |
| CCUGAAAAUGAAAAGGAAGCUUCAGGUGGAGACAGCCCGAAGGAUGAUUCAAAGCCGCCUUACUCCUACGCGCAGCUGAUAGUUCAGGCGAUUACGAUGGCUCCCGACAAACAGCUCACC | 0.108 ratio |
| AUUCUGACCAUGAUUCCAACUGAAGAGGAGAAGCAGAAAAUCCAGGAGGCUCAGCUGGCUAACCCGGAAGUGCCGUUGGGCAGUGCAGAGCAGUUCCUUCUCACACUCUCUUCCAUCAGU | 0.0749 ratio |
| UUACGCAUUGGAGUUGAUAACCACGUGUUACCCUUGGACUGUGUUACUCUGCAGACGUUCUUAGCAAAGUGCUUAGGACCCUUCGAUGAGUGGGAAAGCCGGCUAAGGGUGGCAAAGGAG | 0.136 ratio |
| GAACUAUGACAUCGGAGCGGCUCUGGACACCAUCCAGUAUUCAAAGCAUCCCCCGCCGUUGUGACCACUUUUGCCCACCUCUUCUGCGUGCCCCUCUUCUGUCUCAUAGUUGUGUUAAGC | 0.5 ratio |
| ACAUUUAAGGAUUUUGUUCUUCAUCCAAGAAGUCACAAAUCAAGAGUUAAAGGUUAUCUGAGACUAAAAAUGACUUAUUUACCUAAAACCAGUGGCUCAGAAGAUGAUAAUGCAGAACAG | 0.216 ratio |
| UAAGUCCUGUGCCAGCACUUCGCUCAUAAAGUUUUAAAUUCUGGACCAAUAGUGUUUGUUUCCUGAUUAUUGUAUCCAAUACUUUGCCUAGUAUGUAACUCACUCUUACUGAUAAUAAAA | 1.46 ratio |
| GACAGUGAAGAAGAAAUUAGAGAAGCAUUCCGUGUGUUUGAUAAGGAUGGCAAUGGCUAUAUUAGUGCUGCAGAACUUCGCCAUGUGAUGACAAACCUUGGAGAGAAGUUAACAGAUGAA | 1.17 ratio |
| GAGAGCCGCCUGUCUUGGUUAGAUGGCUCUGGAUUAGGAUUCUCACUGGAAUACCCCACCAUUAGUUUACAUGCAUUAUCCAGGGACCGAAGUGACUGUCUAGGAGAGCAUUUGUAUGUU | 7.98 ratio |
| CAUGACAAAGCUUCAAAGGAUGCCAAAUAUGAACUGGUAAAAGCACUUGCCAAUUCCAAGACAGUUGCAGAGAUCUUUGGGAACUCAAAUUAUUUGAGGCUCAGAGCGUACCUAAGUGAA | 0.107 ratio |
| AAAGAACUGCUAUCUAUGGAGAAAGCAAUUCUGUACUCAUUGUUGGACCACGAGGAUCAGGAAAGACCACAUUAUUAAAUCAUGCUUUGAAAGAACUCAUGGAAAUAGAAGUGAGUGAAA | 0.406 ratio |
| UCUUAUGUAGACUUAUCUUCCCUUACAGAGCUGGUCCACUUAAAACUGGCCCGAGACUUUCCCAUUAACCCCAUUUGUCUUCCUGUGGCUUUGAUAAUAUUUGGGAGAUUCUGUUGUGUA | 0.507 ratio |

Sample 2 — method: RNA Bind-n-Seq; molecule type: RNA; sample: in vitro; tested at: 200 nM; notes: whole 134-nt RNA, ends assumed; with: 150 mM LiCl; baseline: input library; reading: higher = stronger binding; each molecule: 7-deaza-guanosine replaces G
Target: Fragile X messenger ribonucleoprotein 1, C-terminal low-complexity region (Fmr1, Mus musculus, UniProt P35922)
Shared flanks, not repeated: GGGAGUUCUACAGUCCGACGAUC … UGGAAUUCUCGGGUGUCAAGG
| Strand | log2 enrichment |
| --- | --- |
| UGGGAGGUGGAUUUUGUUUAUUUUUUUAGCUCAUUUCCAGGGGUGGGAAUUUUUUUUUAAUAUGUGACAUGAAUAAAGUUGUUUUUGAAA | -0.246 |
| UCUGUUUCCUCUGCCAGUGGCAAUGCAACACCUAACACUCCUGGGGAUGAGUCUCCCUGUGGUAUUAUUAUUCCUCAUGAAAACUCACCA | 0.553 |
| GCAGGAAGUAAAAACAAAUGGAAAUGCUUCGGAUAAUGGCAGGGGUGGGGGUUGCUAAGGAAAGGGUGGGAUGGGAGUGGGUAAAGAGUU | 1.29 |
| AGUCCUGUGCUACACAUCGUAUGUACCGAAUCGGGGUUUUUGGGUUUUUGGUUUUUGGAAAGUAUUAUGUUACGCCGUUCGGAUCUGCAC | -1.51 |
| GUCCUGUGCUACACAUCGUAUGUACCGAAUCGGGUUUUUGGGUUUUUUUGGGUUUGGGAAAGUAUUAUGUUACGCCGUUCGGAUCUGCAC | -0.186 |
| UCCUGUGCUACACAUCGUAUGUACCGAAUCAAAUUUUUUUAAACCCCCAAAUUUUUAAAAAAGUAUUAUGUUACGCCGUUCGGAUCUGCA | -0.66 |
| AGUCCUGUGCUACACAUCGUAUGUACCGAAUCGGGUUUGGGUUUUUUUGGGUUUGGGAAAGUAUUAUGUUACGCCGUUCGGAUCUGCACU | -1.49 |
| AAGUCCUGUGCUACACAUCGUAUGUACCGAAUCGGGAAAGGGAGGGUUUUUUUGGGAAAGUAUUAUGUUACGCCGUUCGGAUCUGCACUU | -1.14 |
| UCCUGUGCUACACAUCGUAUGUACCGAAUCGGGGUUUUUGGGGUUUUUGGGGUUUUUGGAAAGUAUUAUGUUACGCCGUUCGGAUCUGCA | 0.629 |
| CAAGUCCUGUGCUACACAUCGUAUGUACCGAAUCGGAAAAGGAAAAGGGAAAAGGGAAAGUAUUAUGUUACGCCGUUCGGAUCUGCACUU | -1.06 |
| UGGCCCUGGUGGCAUGCGGGGAGGAAGAGGUGGCCUCAUGGAUCGUGGUGGUCCCGGAGGAAUGUUCAGAGGUGGCCGUGGUGGAGACAG | -0.578 |

Sample 3 — method: protein binding microarray; molecule type: double-stranded DNA, one strand shown; sample: in vitro; tested at: not given; baseline: not given; reading: higher = stronger binding
Target: Histone acetyltransferase KAT6A, winged helix 1, GST fusion (KAT6A, Homo sapiens, UniProt Q92794, residues 1-85)
Notes: 8-mer, flanks averaged, mean of 2 arrays, mostly near background
Residues (chain): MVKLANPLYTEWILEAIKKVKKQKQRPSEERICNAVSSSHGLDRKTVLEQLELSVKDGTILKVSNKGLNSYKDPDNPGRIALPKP
| Strand | E-score |
| --- | --- |
| AGTCCGCC | 0.169 |
| CTATTCCA | -0.0646 |
| CGCCACAG | -0.0871 |
| ACCCTGAG | -0.0124 |
| CATCAGAA | -0.157 |
| CAGCTCAG | -0.117 |
| AAATCCTT | -0.19 |
| ATTACTTA | -0.0197 |
| CGCGATTC | 0.33 |
| GCAGCAGA | -0.101 |
| CCAGCTCA | -0.22 |
| CGGTTCAC | -0.0142 |
| ACGTGTCT | -0.0922 |
| AAGGTCGT | -0.275 |
| CGCTCCAC | 0.135 |
| CAACTAGG | -0.0799 |
| ACCTTATC | 0.00508 |
| AGGGAAAC | -0.149 |
| CGCAACCC | 0.124 |
| ACCAACAC | -0.209 |
| ACATGGGT | -0.0769 |
| ACCGAACT | -0.236 |
| AAGTCGGT | -0.143 |
| TAAGCAAA | -0.0556 |

Sample 4 — method: RNA Bind-n-Seq; molecule type: RNA; sample: in vitro; tested at: 365 nM; baseline: no-protein control; reading: higher = stronger binding
Target: RNA binding protein fox-1 homolog 2, RRM domain, GST-SBP tag (RBFOX2, Homo sapiens, UniProt O43251-10, residues 100-194)
Notes: natural RNA segment, single round, ends assumed
Shared flanks, not repeated: GGGAGUUCUACAGUCCGACGAUC … UGGAAUUCUCGGGUGCCAA
Target sequence (chain): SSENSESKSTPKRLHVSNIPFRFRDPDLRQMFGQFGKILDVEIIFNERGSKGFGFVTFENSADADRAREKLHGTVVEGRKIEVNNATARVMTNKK
| Strand | RBNS enrichment (R) |
| --- | --- |
| UCUCUUCAAAAGAAGAGAGAUUCCAAGCAACCCAUCUUUCUUCAGUAUGUAUGUUCUGUACAUACUUAUCGGAGCGCGCCAGUAAGUAUCAGGCAUAUAUAUCUGUCUGU | 0.217 |
| AUGCCAAUAGUAGGUGAGAGUGUAUUGCACAGAGUUGGAGAUAGUAAGGUGGUGACAUUUAACACAGUUACUCUGUCUUUUUUCAGAUUAUGGGUAUUUAUCCUCUAUUA | 1.77 |
| CUGCAGUCAGUGCUAAUCCGUCGUUCUUAAUCAGGAGUUCUGCCAGGUUUAAGGUCACCUGCACUCCCAGCCAAGUGGUGAUGUAUGCCUCCCACUCUCUGCAAGGUUUU | 0.875 |
| AAGAGUUUUGUUAGAGACAAGCAAUCUGUAAUCCCUCACCUGAAGACCGCAGACUGCAGCUCUGUCAUGCGAGGAAGCGCUCAAGUGUCCUGUGCGAACCCCUCGCCUCU | 0.337 |
| AAGUGGAUUCUCUCCGUGUCCCUGCCCCCCACCCAAACUUGAACUAUACCUAUUACAUUUCCAGGCAGUAUCCCUAAGAUGAGAUCCUGGAGAAAGGACUAGGGGAAGUA | 0.277 |
| UGCCACAGAAGGCAGAGGGUAGUUGGUGGCCUUUUCAUCCACUUAACCCUGACACAGGCAGCUGCUGACCGGCCGCCUGUGUCCUGUGUCCGUCCAUUCUGGGCCACAGC | 0.257 |
| UGGCUCCUAGCUGCCCAUAGGCUCCUAGUGCAUGAGGAAUUCUGAGGAGAGGACAAGUGGGGACAUUUCCUCGGCAUGGCCUCCAAGGCCUGCAUGGCUACACACCUGGC | 11.9 |
| CUGCUGUCAGAGUGGGAGCAGACUCAUCAGCCUUGGCAGAGAAAGAGUGCCCUUCAGGCUGUCAGGUCACGAGCUCCGAGCUGCCCUUAGUCCUUGUCAGCCUCACAGAG | 0.314 |
| UUAUAUACAUCCAAAUAUAUAUACUUUUUCUACCCAAUUAUUCAACUUAAAAGAUUUCAAAAACGAUUUAGCCUUAUAAUGUAUUUAUUUAUUUAAUUCAUUAAUGAAAG | 0.99 |
| UGUUUUUUGUGUUUUCCCUCUAUUUUCAACCAAAUCCUAGAGCCAGCUGAGACUGCUGAGUAAUCUGAAGGCGAGAGCAAGGAUAUACCAGCGAGGUCAGCCCCUCUAGA | 0.375 |
| UAAAGAUAUUUAAUGUUCUGUUUAUUUAAUUGCUUCUUAAAUUGAUAUGAUUUUCUUAUAAAACAGAAAAGAAUUAUAAGAAUAUAUUGAAAAUAAAAGAAUUGAAAGGU | 0.819 |
| CGACCGGCCCUGCCCCUCUUCCCGGGAUCACUUAAUGAACCACGUGUUUUGACAUCAUGUAAACCUAAGCACGUAGAGAUGAUUCGGAUUUGACAAAAUAACAUUUGAGU | 1.1 |
